Experimental data pooled from the literature.
A part holds a random share of what one study measured.
UniProt O75676, sequence (whole entry, looked up): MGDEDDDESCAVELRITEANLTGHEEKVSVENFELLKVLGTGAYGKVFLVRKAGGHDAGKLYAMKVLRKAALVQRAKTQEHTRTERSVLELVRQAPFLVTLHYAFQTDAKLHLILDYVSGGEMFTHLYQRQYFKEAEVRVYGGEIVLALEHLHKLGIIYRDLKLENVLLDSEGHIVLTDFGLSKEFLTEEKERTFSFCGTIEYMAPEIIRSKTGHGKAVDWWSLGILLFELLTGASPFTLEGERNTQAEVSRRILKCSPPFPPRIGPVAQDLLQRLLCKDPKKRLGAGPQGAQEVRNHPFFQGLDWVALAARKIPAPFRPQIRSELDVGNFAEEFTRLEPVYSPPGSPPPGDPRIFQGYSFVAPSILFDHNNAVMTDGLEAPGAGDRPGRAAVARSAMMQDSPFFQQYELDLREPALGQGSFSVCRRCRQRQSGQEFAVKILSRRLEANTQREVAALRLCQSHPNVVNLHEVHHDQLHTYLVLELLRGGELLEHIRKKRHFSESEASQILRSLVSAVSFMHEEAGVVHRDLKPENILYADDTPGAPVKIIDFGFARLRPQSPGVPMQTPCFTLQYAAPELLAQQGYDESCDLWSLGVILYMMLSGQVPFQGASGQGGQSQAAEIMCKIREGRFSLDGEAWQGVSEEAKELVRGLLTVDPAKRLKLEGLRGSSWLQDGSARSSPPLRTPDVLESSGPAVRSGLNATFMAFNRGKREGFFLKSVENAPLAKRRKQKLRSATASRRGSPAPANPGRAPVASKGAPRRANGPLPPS
UniProt Q16539, sequence (whole entry, looked up): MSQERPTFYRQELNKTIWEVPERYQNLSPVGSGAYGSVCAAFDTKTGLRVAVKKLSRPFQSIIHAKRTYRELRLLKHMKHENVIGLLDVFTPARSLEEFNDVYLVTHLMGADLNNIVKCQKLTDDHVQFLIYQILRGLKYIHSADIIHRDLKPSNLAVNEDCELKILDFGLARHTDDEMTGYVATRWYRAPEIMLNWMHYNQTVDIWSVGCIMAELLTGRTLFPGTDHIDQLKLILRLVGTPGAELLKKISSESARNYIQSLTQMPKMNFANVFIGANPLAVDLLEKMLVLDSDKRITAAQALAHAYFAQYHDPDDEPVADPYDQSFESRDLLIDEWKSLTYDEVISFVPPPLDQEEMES
UniProt P42681, sequence (whole entry, looked up): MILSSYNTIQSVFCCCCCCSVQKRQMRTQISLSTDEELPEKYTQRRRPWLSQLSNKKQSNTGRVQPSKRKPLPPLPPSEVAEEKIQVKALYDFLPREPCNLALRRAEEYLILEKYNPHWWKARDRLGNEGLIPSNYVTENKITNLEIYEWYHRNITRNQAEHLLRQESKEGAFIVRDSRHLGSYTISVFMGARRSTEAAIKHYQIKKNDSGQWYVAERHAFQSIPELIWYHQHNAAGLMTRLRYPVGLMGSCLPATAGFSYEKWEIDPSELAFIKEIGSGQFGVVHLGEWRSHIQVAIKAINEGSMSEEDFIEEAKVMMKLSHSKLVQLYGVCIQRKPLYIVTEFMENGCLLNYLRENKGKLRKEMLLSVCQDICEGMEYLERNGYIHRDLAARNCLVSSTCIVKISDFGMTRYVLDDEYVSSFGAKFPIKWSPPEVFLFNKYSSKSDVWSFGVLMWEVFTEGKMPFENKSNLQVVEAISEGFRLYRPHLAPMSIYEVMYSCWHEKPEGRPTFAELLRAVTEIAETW
UniProt P32298, sequence (whole entry, looked up): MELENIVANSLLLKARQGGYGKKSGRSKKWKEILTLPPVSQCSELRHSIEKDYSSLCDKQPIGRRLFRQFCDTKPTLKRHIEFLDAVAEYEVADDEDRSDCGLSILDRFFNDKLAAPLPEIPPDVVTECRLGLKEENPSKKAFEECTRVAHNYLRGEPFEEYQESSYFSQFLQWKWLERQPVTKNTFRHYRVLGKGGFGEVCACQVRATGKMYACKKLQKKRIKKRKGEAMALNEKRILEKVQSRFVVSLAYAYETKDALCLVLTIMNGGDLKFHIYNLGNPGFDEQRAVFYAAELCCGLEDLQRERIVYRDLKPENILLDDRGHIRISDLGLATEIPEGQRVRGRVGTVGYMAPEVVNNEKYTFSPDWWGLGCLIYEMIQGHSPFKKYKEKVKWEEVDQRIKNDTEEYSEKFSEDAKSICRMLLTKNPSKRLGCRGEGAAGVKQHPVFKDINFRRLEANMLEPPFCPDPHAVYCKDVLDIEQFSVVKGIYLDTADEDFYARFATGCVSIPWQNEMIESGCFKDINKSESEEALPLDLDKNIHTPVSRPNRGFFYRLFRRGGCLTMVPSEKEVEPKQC
UniProt P60842, sequence (whole entry, looked up): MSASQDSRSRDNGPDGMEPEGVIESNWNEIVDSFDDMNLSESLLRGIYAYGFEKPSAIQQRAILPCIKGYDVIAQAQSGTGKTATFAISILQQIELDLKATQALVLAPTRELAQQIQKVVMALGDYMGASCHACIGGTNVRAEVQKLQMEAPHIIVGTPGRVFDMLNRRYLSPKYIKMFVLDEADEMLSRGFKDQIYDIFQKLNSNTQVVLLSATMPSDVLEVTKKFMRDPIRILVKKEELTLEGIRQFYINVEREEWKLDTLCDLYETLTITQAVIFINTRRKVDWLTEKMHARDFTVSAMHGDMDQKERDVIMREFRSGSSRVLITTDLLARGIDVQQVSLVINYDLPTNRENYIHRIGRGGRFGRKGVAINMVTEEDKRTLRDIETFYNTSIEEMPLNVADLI
UniProt Q96L34, sequence (whole entry, looked up): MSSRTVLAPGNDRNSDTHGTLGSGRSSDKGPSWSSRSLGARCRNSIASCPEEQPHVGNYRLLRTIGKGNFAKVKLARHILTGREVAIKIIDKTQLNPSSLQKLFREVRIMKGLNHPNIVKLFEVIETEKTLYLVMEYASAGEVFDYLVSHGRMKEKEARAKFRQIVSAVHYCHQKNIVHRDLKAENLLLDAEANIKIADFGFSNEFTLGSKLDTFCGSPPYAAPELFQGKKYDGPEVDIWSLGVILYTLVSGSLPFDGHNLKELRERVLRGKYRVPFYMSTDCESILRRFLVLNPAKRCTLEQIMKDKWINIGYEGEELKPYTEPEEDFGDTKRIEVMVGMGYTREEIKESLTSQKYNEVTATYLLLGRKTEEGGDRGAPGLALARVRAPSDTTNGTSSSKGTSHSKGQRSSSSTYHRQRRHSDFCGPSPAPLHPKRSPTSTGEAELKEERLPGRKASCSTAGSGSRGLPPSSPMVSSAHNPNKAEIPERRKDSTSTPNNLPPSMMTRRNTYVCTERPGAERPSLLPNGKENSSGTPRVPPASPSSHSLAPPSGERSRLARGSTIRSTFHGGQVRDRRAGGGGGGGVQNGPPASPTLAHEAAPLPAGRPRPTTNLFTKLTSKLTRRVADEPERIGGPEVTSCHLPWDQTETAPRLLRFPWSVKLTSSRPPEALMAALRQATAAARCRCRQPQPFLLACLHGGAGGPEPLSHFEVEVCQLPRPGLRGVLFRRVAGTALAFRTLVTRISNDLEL
UniProt O75914, sequence (whole entry, looked up): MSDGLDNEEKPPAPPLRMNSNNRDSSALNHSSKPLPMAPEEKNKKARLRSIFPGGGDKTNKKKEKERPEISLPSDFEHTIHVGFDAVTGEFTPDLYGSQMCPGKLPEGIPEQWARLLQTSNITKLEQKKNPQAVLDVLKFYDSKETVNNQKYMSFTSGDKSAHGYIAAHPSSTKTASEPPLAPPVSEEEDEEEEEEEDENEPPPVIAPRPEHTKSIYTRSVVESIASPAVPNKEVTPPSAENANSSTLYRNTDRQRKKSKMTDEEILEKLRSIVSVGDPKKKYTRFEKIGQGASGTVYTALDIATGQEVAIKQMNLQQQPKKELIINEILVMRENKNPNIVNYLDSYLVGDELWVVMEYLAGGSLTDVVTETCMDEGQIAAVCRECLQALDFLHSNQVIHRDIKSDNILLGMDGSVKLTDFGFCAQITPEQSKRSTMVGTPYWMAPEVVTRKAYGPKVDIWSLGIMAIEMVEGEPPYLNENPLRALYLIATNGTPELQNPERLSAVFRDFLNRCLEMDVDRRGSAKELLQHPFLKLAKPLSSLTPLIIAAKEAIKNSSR

Set 1 — effect on: acetyl-histone H4 peptide binding; method: AlphaScreen displacement; tested at: 50 µM
Target: Bromodomain-containing protein 4, BD1 (BRD4, Homo sapiens, UniProt O60885)
Structure (SMILES)	inhibition
COc1ccc(NC=C2C(=O)NC(=S)N(C)C2=O)cc1	6.3%
COc1ccc2c(c1)/C(=C/c1cnc[nH]1)C(=O)N2	51.1%
CN1C(=O)NC(=O)C(=NNc2ccc(Br)cc2)C1=O	0.7%
CCCCN1C(=O)NC(=O)C(=C(C)Nc2cccc(C(=O)O)c2)C1=O	4.6%
COc1ccc(N2C(=O)NC(=O)C(=CNc3ccc(F)cc3)C2=O)cc1	12.6%
CCN1C(=O)NC(=O)C(=CNc2ccc(Cl)c(C(=O)O)c2)C1=O	12.7%

Set 2 — effect on: enzyme activity; action: inhibitor; tested at: 0.5 µM; baseline: control
Structure (SMILES): O=C1NC(=O)c2c1c1c3ccccc3n3c1c1c2c2ccccc2n1[C@H]1CC[C@@H]3O1
target	remaining activity
Serine/threonine-protein kinase tousled-like 2 (TLK2, Homo sapiens, UniProt Q86UE8)	14.1%
Serine/threonine-protein kinase DCLK2 (DCLK2, Homo sapiens, UniProt Q8N568)	89.6%
Ribosomal protein S6 kinase alpha-4 (RPS6KA4, Homo sapiens, UniProt O75676)	12.4%
Serine/threonine-protein kinase Nek3 (NEK3, Homo sapiens, UniProt P51956)	102%
MAP/microtubule affinity-regulating kinase 4 (MARK4, Homo sapiens, UniProt Q96L34)	5.31%
RAC-beta serine/threonine-protein kinase (AKT2, Homo sapiens, UniProt P31751)	48.5%
Serine/threonine-protein kinase PAK 3 (PAK3, Homo sapiens, UniProt O75914)	41.7%
Cyclin-dependent kinase 1, with cyclin A (CDK1, Homo sapiens, UniProt P06493)	61.7%
G protein-coupled receptor kinase 4 (GRK4, Homo sapiens, UniProt P32298)	77%
Tyrosine-protein kinase TXK (TXK, Homo sapiens, UniProt P42681)	22.7%
Mitogen-activated protein kinase 14 (MAPK14, Homo sapiens, UniProt Q16539)	102%

Set 3 — effect on: ligand displacement; tested at: 10 µM
Target: D(1B) dopamine receptor (DRD5, Homo sapiens, UniProt P21918)
UniProt P21918, sequence (whole entry, looked up): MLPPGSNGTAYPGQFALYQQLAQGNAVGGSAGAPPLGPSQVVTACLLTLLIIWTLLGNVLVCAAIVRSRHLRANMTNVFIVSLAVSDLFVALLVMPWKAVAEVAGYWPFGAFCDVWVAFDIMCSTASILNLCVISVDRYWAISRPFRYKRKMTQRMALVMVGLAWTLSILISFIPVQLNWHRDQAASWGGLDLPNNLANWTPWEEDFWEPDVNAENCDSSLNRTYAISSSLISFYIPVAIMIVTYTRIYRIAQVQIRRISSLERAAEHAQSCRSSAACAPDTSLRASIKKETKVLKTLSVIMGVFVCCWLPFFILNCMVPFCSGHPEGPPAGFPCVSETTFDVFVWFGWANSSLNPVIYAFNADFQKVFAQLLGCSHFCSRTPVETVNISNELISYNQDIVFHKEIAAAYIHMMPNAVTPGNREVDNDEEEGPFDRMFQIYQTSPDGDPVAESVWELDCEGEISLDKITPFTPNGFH
Compound	inhibition [%]
Cn1cc(Cl)c2c(Oc3c(F)cc(Nc4cc(Cl)nc(N)n4)cc3F)ccnc21	9.8
Cc1ncc(-c2cc(Cl)ccc2F)cc1-n1c(=O)n(CC(N)=O)c2ccccc21	6.12
NS(=O)(=O)c1cc(NC(=O)Cc2ccccc2)ccc1Oc1cccc(Cl)c1	27.7
c1ccc(C2CCN(c3cnc4c(N5CCOCC5)nccn34)CC2)cc1	-30.7
CCC(F)(F)c1cc(N2CCC(S(C)(=O)=O)CC2)nc2sc(C(N)=O)c(N)c12	2.13
CNC(=N)NCCC[C@H](NC(=O)[C@H](CC(C)C)NC(=O)NNC(=O)[C@H](Cc1ccccc1)NC(=O)[C@H](CO)NC(=O)[C@H](CC(N)=O)NC(=O)[C@@H](Cc1ccncc1)NC(=O)[C@H](N)Cc1ccc(O)cc1)C(=O)N[C@@H](Cc1ccccc1)C(N)=O	0.512
CCc1ccccc1C(=O)Nc1n[nH]c2c(C)c(F)c(C3C(C#N)=C(C)N(C)C(C)=C3C#N)cc12	8.47
COc1cc(C(=O)O)ncc1C#Cc1ccccc1NS(=O)(=O)c1cccc2c(N(C)C)ccnc12	-11.2
Cc1ccccc1Oc1cc(-n2c(=O)cc(C(F)(F)F)[nH]c2=O)c2ccccc2c1Cl	18.7
C[C@@H]1CN(c2cc(-c3n[nH]c4ccc(OC5(C)CC5)cc34)ncn2)C[C@H](C)O1	16.1
Cn1nc(C(=O)NCc2ccc(C(=O)O)cc2)cc1-c1ccc2[nH]ccc2c1	73.9
Nc1cnc(N2CCc3cc(S(=O)(=O)Nc4c(F)cc(Cl)cc4F)cc(N4CCCC4=O)c32)nc1	7.88
COCCOc1nc(-c2ccc(Cl)nc2)nc2c1CN(C(=O)c1ncn3ccccc13)CC2	-3.46
O=C(Nc1ccc(Oc2ccc(F)cc2)cc1)N1CCc2ncccc2[C@H]1c1ccc(F)cc1	29.1
COc1cc(N[C@@H]2CCCC[C@]2(O)C(F)(F)F)ccc1F	-15
CN1CCN(c2cnc3c(C4CCN(C(=O)c5ccc(OC(F)(F)F)cc5N)CC4)ncnc3c2)CC1	4.63
CC1=C(C#N)C(c2ccc3[nH]nc(C)c3c2)C(C#N)=C(C)N1	5.4
CN(C)c1ncnc(-c2ccc3nc(Nc4cc(CN5CCN(C(=O)CC(F)(F)F)CC5)ccn4)[nH]c3c2)c1Cl	-9.93
CO[C@H]1CC[C@H](CNc2ccc(S(=O)(=O)NC(=O)c3ccc(N4CCN(CC5=C(c6ccc(Cl)cc6)CC(C)(C)CC5)CC4)cc3Oc3cnc4[nH]ccc4c3)cc2[N+](=O)[O-])CC1	34.1
Nc1nc(NCc2ccccc2)nc(-c2cccc(CO)c2)n1	-13.2
C[C@H](c1ccc(F)cc1)N(Cc1cccc(C(=O)O)c1)C(=O)c1cnc2ccccc2c1	-1.69
O=C1NC(c2ccccn2)Sc2ccccc21 (centres unmarked)	11.2

Set 4 — organism: Sarcocystis neurona; effect on: parasite growth; tested at: 10 µM; time: 96 h; notes: first screen; baseline: untreated
Structure (SMILES)	log2 fold change
NCCc1ccccn1	-0.53
Oc1ccc2c3c1O[C@H]1[C@@H](O)CC[C@@]4(O)[C@@H](C2)N(CC2CCC2)CC[C@]314	-0.1
CC[C@@H](C(N)=O)N1CCCC1=O	0.0746
COc1cc2c(cc1OC)[C@@]13CCN4CC5=CCO[C@H]6CC(=O)N2[C@H]1[C@H]6[C@H]5C[C@H]43	-0.65
NC(=NCc1ccc(Cl)cc1)SCCCc1cnc[nH]1	-0.34

Single results of other studies
CAMK2A: Calcium/calmodulin-dependent protein kinase type II subunit alpha (CAMK2A, Homo sapiens, UniProt Q9UQM7)
UniProt Q9UQM7, sequence (whole entry, looked up): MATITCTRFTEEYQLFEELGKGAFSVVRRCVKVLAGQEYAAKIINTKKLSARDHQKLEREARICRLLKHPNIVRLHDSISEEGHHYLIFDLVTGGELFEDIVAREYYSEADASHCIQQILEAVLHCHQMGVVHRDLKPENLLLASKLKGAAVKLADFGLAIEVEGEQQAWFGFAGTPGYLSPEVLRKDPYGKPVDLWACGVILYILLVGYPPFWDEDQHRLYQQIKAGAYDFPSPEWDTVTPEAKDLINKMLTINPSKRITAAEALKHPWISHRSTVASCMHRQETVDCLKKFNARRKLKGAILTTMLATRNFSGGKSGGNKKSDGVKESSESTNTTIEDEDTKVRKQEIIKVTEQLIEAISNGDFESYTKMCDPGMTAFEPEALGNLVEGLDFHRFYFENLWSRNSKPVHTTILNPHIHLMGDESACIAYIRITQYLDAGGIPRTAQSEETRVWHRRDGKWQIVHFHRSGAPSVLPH
SMILES	target	assay	setting	endpoint	value
C[C@]12CC[C@@H]3c4ccc(OC(=O)N(CCCl)CCCl)cc4CC[C@H]3[C@@H]1CC[C@@H]2OP(=O)(O)O	CAMK2A	enzyme activity, inhibitor, ADP detection	10 µM	inhibition	-12%
CONC(=O)[C@@H]1[C@@H](O)[C@@]2(O)c3c(OC)cc(OC)cc3O[C@@]2(c2ccc(Br)cc2)[C@H]1c1ccccc1	Eukaryotic initiation factor 4A-I (EIF4A1, Homo sapiens, UniProt P60842)	RNA clamping, fluorescence polarization	concentration not given, with: FAM-labelled poly r(AG)8 RNA	fluorescence polarization change	27.5 mP
CN[C@@H]1C[C@H]2O[C@@](C)([C@@H]1OC)n1c3ccccc3c3c4c(c5c6ccccc6n2c5c31)C(=O)NC4	CAMK2A	enzyme activity, inhibitor, ADP detection	10 µM	inhibition	> 80%

Repeated from above (set 2):
target	remaining activity
Cyclin-dependent kinase 1, with cyclin A (CDK1, Homo sapiens, UniProt P06493)	61.7%
G protein-coupled receptor kinase 4 (GRK4, Homo sapiens, UniProt P32298)	77%
Tyrosine-protein kinase TXK (TXK, Homo sapiens, UniProt P42681)	22.7%
